Assay results of several laboratories.
Every numbered part comes from another study and shows a few of its results, in no order.

Sample 1 — method: protein-binding microarray; form: double-stranded DNA, one strand shown; matrix: in vitro; concentration: 250 nM; setting: 60-bp whole probe; added: salmon DNA 0.4 mg/ml; relative to: random background probes; direction: higher = stronger binding; quantity: log fluorescence
Target: Interferon regulatory factor 5, full length, phosphomimetic (IRF5, Homo sapiens, UniProt Q13568-2, residues 1-514, K96S/S451D/S453D/S456D/S462D)
GCCTAGCACTCAAACTTGTATTTGTCACTGTGCTAGGTCTTGATTCGCTTGACGCTGCTG: 0.407 z-score
GCCTAGCACGACGATATCTGGACTGGAGACGTGCTAGTCTTGATTCGCTTGACGCTGCTG: 0.431 z-score
GCCTAGCACGACGGTATCCTTATCCTAACGTGCTAGGTCTTGATTCGCTTGACGCTGCTG: 0.1 z-score
GCCTAGCACTCATGTTTGTCCCTATTACTGTGCTAGGTCTTGATTCGCTTGACGCTGCTG: 0.692 z-score

Sample 2 — method: Sort-seq; item: YFP reporter; matrix: E. coli; setting: PhoQ-PhoP variant library; added: 10 µM Mg2+; relative to: high Mg2+ state; direction: higher = stronger signaling; quantity: fold induction
Substance: PhoQ, residues 284 288 289 292 302 303 TLSLKA
PhoP, residues 12 14 15 18 19 SHWTV (Escherichia coli, UniProt P23836): 18
PhoP, residues 12 14 15 18 19 QYCSL (Escherichia coli, UniProt P23836): 3.21
PhoP, residues 12 14 15 18 19 STHWV (Escherichia coli, UniProt P23836): 13.5

Sample 3 — method: RNA Bind-n-Seq; form: RNA; matrix: in vitro; concentration: 365 nM; relative to: no-protein control; direction: higher = stronger binding; quantity: RBNS enrichment (R)
Target: RNA binding protein fox-1 homolog 2, RRM domain, GST-SBP tag (RBFOX2, Homo sapiens, UniProt O43251-10, residues 100-194)
Setting: natural RNA segment, single round, ends assumed
Construct (chain): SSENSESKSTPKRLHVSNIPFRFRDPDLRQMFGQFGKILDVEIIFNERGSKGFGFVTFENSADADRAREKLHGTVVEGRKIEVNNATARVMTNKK
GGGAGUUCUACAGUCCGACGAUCGUAAAGAUUAGUUUCAGUGAGUCCCAGGGACUAAUUAAGGUUUAUUUUUAAAAGCGUCUGCCUUGGUGCGCAACCACCUCCUGCAUGCUAUGCAUGCUGUUGGGACUCGUUGGAAUUCUCGGGUGCCAA: 0.431
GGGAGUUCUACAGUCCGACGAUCCACAGAGAAGGAGACGCACUUCUGGCGGCCACCAGCCAUCUGGGGCUCUUCUUCCUUUCUUCCCCCCGUGUAUGUAAAUGAAUUCCUGAACCCCAUACUUCACCUAAUGGUGGAAUUCUCGGGUGCCAA: 0.202
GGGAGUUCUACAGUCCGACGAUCAUGAGCCCCUCAUUUGCACACAGUGACCACAUGAGCUUCCACUUACCUAACAACAGCCAUUUCAGGCCCUCAAUAGUGCUUGCUUCAUCUUAGCCUGGCCCAGCCUGGGCUGGAAUUCUCGGGUGCCAA: 0.488
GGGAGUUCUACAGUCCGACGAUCAGGGAUGCUGAUUGAUAUUUCACAUUGUAUGAAAUACCAUGUUUGAAACUCAUAGCAAUAAUGCUAUGCUGUUGUGAUCCCUCUCAAGUUCUGCAUUUAAAAUAUAUUUUUGGAAUUCUCGGGUGCCAA: 0.69
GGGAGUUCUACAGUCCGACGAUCUCAGGGUCAGAGCCCCUGAUCUGCUGAUGUUUGGUUGGGUGUCCAUGAGGGCCCCUCCCACCCAGUAUUUGUGGAGUCCAGGCGCCUGCCCUGUUUCAUGCCAGGGCCACUGGAAUUCUCGGGUGCCAA: 0.215
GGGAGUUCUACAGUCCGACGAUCUGUAAAAAUUGUAUAUAUUUUUACAGAAAGUCUAUUUCUUUGAACAUAAGAGGGAAGUCUUGGAUUUAGUUUUUUUCCAUACCCUUUUGAAAUUUGCAGCUUCUCUAGUUUGGAAUUCUCGGGUGCCAA: 0.567
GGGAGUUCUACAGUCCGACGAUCCUUUGAGAUACAUUGUUUUGGAAAUUCAUACAAUUUUCUCAACAUUGUAUUCUACUGACAGGAUGCGGUUUUAAAUUUUAUGCCAUCUGUUAUUUAUUCUUGUUUAUUCAUGGAAUUCUCGGGUGCCAA: 0.695

Sample 4 — method: universal PBM; form: double-stranded DNA, one strand shown; matrix: in vitro; concentration: not given; direction: higher = stronger binding; quantity: E-score
Target: Sal-like protein 4, full length isoform B (SALL4, Homo sapiens, UniProt Q9UJQ4-2, residues 1-616)
Setting: 8-mer, flanks averaged, mean of replicates
ATCTCTAA: 0.0845
CCGTGTAG: -0.041
CCCAGAAG: -0.12
GATACAGA: 0.0749
GAAACGCA: -0.0826
AACACTAG: 0.0514
AAACCATC: 0.0791

For quick reference, copied from above (sample 4):
CCGTGTAG: -0.041
CCCAGAAG: -0.12
GATACAGA: 0.0749
GAAACGCA: -0.0826
